Experimental data of several laboratories.
± marks the error that the study gave.

NCC(=O)NCC(=O)NCC(=O)NCC(=O)NCC(=O)NCC(=O)NCCCC[C@H](NC(=O)[C@@H]1CCCN1C(=O)[C@@H]1CSSCCC(=O)N[C@@H](Cc2ccc(O)cc2)C(=O)N[C@@H](Cc2ccccc2)C(=O)N[C@@H](CCCC(N)=O)C(=O)N[C@@H](CC(N)=O)C(=O)N1)C(=O)NCC(N)=O — NOEL (male Sprague Dawley rats; sc, dose not given, single dose): 2.3 µg/kg
OC1(C(F)(F)F)CCN(c2nc(Nc3ccnc(C(F)(F)F)c3)nc(-c3cccc(C(F)(F)F)n3)n2)C1 (stereo not drawn) — half-life (monkey, both sexes, blood; intravenous, 1 mg/kg): 12.2 h
C1=CCCC=CCC1.F[P-](F)(F)(F)(F)F.[Pt+][c]1ccccc1P(=Nc1ccccc1)(c1ccccc1)c1ccccc1 — absorption rate constant (rat; 20 µM): 2.12 h⁻¹
CC(C)C[C@@H](NC(=O)[C@H](NC(=O)[C@H]1CCCN1)[C@H](C)O)C(=O)N[C@H](Cc1c[nH]cn1)C(=O)N[C@@H](C(=O)N[C@H](Cc1c[nH]cn1)C(=O)N[C@H](CC(N)=O)C(=O)N[C@H](CCCNC(=N)N)C(=O)N[C@H](CCCNC(=N)N)C(=O)N[C@H](CCCNC(=N)N)C(=O)N[C@H](CCCNC(=N)N)C(=O)N[C@H](CCCNC(=N)N)C(N)=O)[C@H](C)O — terminal half-life (Beagle dogs both sexes, plasma; oral, 20 and 50 mg/kg): ~70 h
COc1cc2nnn(C(=O)N3COCC3(C)C)c2cc1OC — compound remaining (mouse liver microsomes; 50 µM, 1 h): 55%
CC(=O)N[C@H](CCNC(=O)c1cc(NC(=O)c2cc(NC(=O)c3cc(NC(=O)c4nccn4C)cn3C)cn2C)cn1C)C(=O)Nc1cn(C)c(C(=O)Nc2cc(C(=O)Nc3cc(C(=O)Nc4cc(C(=O)NCCCN(C)CCCN[14C](=O)c5cccc([14C](=O)O)c5)n(C)c4)n(C)c3)n(C)c2)n1 — liver concentration (male NSG mouse, tumour-free; intraperitoneal, 20 nmol per animal, 24 h): 0.57 mg/kg
C1=C(c2cc3c(Nc4ccc5scnc5c4)ncnc3s2)CCSC1 — concentration (BALB/c mouse, plasma; oral, 10 mg/kg, 2 h): 4.39 ng/mL
CC(C)(O)c1ncc([S@](N)(=O)=NC(=O)Nc2c3c(cc4c2CCC4)CCC3)s1 — Cmax (healthy human; oral, 200 mg once daily, day 1, spray-dried dispersion, geometric mean): 22100 ng/mL
Cc1ccc(OCC(=O)N(Cc2cccs2)c2ccn[nH]2)cc1 — remaining compound (male Göttingen minipig, liver microsomes; 10 µM, 60 min, with: NADPH): ~0.89%
[11CH3]c1ccc2nc(C3CCC3)n(-c3ccc4[nH]ncc4c3)c2n1 — absorbed dose (extrapolated from mouse; standard human, Upper large intestine wall): 5.8 µSv/MBq
C#CCOc1ccc(/C=C2\SC(=O)N(CC(=O)NCc3ccccc3)C2=O)cc1 — Kirkwood-Buff integral G1,3 (inverse Kirkwood-Buff integrals; binary solvent mixture; 298.15 K, mole fraction x1 0.00): -6220 cm³/mol
NS(=O)(=O)c1ccc(N2N=C(C(F)(F)F)CC2c2ccc(F)cc2F)cc1 (stereo not drawn) — plasma concentration (Beagle dog, male, arthritis model, plasma; oral, 4 mg/kg single dose, day 0): 544 ± 327 ng/mL
C=C(c1ccc(C(=O)O)c(F)c1)c1cc2c(cc1C)C(C)(C)C=CC2(C)C — HDL level (Sprague-Dawley rat, male, plasma; oral, 100 mg/kg, 3 h, sesame oil vehicle): 76 ± 12.8 mg/dL
Cc1ccc(C(C)C)cc1.O=C(N=P(c1ccccc1)(c1ccccc1)c1ccccc1)c1ccccn1.[Cl-].[Cl-].[Ru+2] — apparent clearance (ICP-MS, item: ruthenium; NOD.CB17-Prkdc scid/J mouse, plasma; intraperitoneal, 5 mg/kg, after first dose): 1.84 mL/h
CCCCCCCCCCCCCCCCCC(=O)Nc1ccn(C2OC(CO)C(O)C2(F)F)c(=O)n1 (stereo not drawn) — release half-life (dialysis; PBS; pH 7.4, 37 °C): 2.11 h

Excerpt of the above:
COc1cc2nnn(C(=O)N3COCC3(C)C)c2cc1OC — compound remaining (mouse liver microsomes; 50 µM, 1 h): 55%
